Measurements of several laboratories.
Parts stem from different laboratories: compare values within a part only. Several values in a cell are separate wells, animals, samples, runs or records.
Sequence of UniProt Q8TD19 (whole entry, looked up): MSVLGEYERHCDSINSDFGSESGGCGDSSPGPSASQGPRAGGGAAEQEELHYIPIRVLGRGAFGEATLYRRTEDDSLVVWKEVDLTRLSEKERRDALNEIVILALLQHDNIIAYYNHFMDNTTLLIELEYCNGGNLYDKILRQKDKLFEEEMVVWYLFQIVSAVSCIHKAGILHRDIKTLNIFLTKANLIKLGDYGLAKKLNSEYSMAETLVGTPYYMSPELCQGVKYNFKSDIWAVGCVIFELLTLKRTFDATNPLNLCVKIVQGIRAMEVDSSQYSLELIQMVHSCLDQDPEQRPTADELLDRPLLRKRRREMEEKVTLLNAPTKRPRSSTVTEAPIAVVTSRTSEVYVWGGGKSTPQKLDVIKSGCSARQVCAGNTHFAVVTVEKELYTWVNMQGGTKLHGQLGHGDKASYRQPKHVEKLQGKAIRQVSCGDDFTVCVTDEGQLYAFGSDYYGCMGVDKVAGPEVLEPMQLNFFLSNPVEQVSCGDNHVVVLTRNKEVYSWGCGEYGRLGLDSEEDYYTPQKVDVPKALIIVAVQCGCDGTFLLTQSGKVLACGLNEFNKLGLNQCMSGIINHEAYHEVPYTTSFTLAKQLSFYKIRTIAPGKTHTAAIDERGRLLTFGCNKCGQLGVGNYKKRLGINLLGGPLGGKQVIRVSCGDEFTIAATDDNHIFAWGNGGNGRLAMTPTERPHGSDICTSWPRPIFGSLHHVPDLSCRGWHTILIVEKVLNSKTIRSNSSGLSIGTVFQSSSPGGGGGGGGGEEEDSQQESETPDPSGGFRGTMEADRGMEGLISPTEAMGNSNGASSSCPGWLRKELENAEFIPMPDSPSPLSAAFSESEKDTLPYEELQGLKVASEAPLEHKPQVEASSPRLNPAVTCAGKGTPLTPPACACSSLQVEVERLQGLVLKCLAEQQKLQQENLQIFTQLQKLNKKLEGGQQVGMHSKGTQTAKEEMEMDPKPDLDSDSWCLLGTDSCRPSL
Sequence of UniProt P24723 (whole entry, looked up): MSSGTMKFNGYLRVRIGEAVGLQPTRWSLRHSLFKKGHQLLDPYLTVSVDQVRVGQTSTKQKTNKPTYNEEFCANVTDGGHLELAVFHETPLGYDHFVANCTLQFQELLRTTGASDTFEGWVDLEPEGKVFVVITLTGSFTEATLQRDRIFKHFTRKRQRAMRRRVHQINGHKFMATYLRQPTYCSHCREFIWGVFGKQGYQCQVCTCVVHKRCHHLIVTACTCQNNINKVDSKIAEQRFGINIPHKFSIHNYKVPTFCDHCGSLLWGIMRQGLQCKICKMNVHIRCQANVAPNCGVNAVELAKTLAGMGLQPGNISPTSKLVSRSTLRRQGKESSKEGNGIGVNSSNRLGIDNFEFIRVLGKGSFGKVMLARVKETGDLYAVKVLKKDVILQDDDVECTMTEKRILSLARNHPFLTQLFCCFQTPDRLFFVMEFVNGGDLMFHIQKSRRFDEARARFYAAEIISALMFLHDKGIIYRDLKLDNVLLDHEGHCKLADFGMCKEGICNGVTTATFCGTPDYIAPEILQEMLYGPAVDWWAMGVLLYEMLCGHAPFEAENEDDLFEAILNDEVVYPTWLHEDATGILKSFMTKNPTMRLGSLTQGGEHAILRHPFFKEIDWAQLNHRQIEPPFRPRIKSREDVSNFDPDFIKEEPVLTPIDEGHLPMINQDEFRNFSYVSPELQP
Sequence of UniProt P41240 (whole entry, looked up): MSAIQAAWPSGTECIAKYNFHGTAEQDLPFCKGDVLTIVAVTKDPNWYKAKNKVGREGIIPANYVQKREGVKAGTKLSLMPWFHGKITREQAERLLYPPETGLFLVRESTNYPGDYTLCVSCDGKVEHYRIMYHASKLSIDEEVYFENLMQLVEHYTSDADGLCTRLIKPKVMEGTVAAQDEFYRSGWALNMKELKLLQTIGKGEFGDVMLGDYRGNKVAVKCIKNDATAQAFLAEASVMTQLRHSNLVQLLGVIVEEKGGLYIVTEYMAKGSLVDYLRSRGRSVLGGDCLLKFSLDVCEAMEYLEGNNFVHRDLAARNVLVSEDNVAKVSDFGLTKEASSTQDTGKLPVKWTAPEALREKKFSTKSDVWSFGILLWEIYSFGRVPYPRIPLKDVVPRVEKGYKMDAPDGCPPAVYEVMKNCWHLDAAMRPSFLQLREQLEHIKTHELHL
Sequence of UniProt P51955 (whole entry, looked up): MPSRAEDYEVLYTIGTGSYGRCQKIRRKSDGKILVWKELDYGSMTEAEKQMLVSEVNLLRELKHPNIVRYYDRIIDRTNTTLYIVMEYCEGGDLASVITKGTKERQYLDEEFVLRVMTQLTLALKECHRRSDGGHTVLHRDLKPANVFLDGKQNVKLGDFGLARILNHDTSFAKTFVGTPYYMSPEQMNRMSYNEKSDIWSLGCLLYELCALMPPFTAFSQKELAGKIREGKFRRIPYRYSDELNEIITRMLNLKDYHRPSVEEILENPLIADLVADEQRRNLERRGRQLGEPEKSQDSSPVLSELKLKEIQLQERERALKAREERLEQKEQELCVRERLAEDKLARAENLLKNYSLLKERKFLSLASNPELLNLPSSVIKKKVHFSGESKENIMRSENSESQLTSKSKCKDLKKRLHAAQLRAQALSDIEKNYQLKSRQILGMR
Sequence of UniProt P35626 (whole entry, looked up): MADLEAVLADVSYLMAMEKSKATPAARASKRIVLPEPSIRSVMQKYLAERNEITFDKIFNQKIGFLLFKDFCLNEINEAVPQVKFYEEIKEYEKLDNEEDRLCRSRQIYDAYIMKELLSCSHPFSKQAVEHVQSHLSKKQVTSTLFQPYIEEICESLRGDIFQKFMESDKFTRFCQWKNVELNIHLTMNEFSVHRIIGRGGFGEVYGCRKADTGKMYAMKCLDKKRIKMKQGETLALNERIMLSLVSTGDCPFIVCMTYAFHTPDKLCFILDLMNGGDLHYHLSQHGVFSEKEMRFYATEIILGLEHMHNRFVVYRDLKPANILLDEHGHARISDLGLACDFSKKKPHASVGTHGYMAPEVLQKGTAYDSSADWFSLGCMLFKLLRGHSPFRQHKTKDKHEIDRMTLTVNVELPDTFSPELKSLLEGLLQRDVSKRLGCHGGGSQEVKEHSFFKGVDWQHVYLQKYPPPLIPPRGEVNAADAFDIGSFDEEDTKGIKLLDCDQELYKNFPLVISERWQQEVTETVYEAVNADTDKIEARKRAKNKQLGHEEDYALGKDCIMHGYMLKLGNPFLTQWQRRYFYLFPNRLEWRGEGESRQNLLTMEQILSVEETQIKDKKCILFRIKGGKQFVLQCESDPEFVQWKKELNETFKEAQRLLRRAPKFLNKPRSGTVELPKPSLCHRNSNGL
Sequence of UniProt P11309 (whole entry, looked up): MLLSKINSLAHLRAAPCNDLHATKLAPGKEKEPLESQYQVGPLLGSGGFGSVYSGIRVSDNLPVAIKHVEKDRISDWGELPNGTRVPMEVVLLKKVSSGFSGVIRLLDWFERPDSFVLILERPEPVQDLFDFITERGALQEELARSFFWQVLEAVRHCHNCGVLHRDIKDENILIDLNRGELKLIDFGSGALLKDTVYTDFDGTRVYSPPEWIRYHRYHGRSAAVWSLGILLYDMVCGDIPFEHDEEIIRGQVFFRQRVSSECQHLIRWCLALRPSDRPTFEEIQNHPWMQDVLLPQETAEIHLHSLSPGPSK

Series 1
Compound: CCN1CCN(Cc2ccc(COc3c(-c4c(C)c(F)cc5[nH]ncc45)c(C4CC4)cc4c(N5C[C@@H]6C[C@H]5CN6)nc(OC5CCOCC5)nc34)cc2)C(=O)C1
Quantity: IC50
AsPC-1 (KRAS G12D); cell viability, CellTiter-Glo: 178 nM and 296 nM
A-375; cell growth or viability, ATP luminescence: > 1000 nM
AsPC-1 (KRAS G12D); ERK1/2 phosphorylation, inhibitor, In-Cell ELISA; 24 h: 986 nM
AsPC-1 KRAS G12D; ERK1/2 phosphorylation, inhibitor, In-Cell ELISA; 2 h: 37.5 nM
AsPC-1 KRAS G12D; ERK1/2 phosphorylation, inhibitor, In-Cell ELISA; 24 h, geometric mean of experiments: 846 nM
A-375 KRAS wild type; ERK1/2 phosphorylation, inhibitor, In-Cell ELISA; 2 h: > 10000 nM

Series 2
SMILES: CN(C1COC1)C(C)(C)/C=C(\C#N)C(=O)N1CCC[C@H]1Cn1nc(-c2ccc(Oc3ccccc3)cc2F)c2c(N)ncnc21
Observed: kinase activity
Quantity: inhibition
PKN2 (Homo sapiens, UniProt Q16513); 0.1 µM: 9%
NEK2 (Homo sapiens, UniProt P51955); 1 µM: -1%
CSNK2A1 (Homo sapiens, UniProt P68400); 1 µM: 0%
PIM1 (Homo sapiens, UniProt P11309); 1 µM: 5%
CDK7 (Homo sapiens, UniProt P50613); 0.1 µM: 0%
MAPK12 (Homo sapiens, UniProt P53778); 0.1 µM: -3%
RIPK2 (Homo sapiens, UniProt O43353); 1 µM: 72%
MAP4K4 (Homo sapiens, UniProt O95819); 0.1 µM: -1%
NEK9 (Homo sapiens, UniProt Q8TD19); 1 µM: 1%
STK38L (Homo sapiens, UniProt Q9Y2H1); 1 µM: -4%

Series 3
Compound: CC[C@@]1(c2ccccc2)C2=C(CC(C)(C)CC2=O)Nc2n[nH]cc21
Concentration: 1 µM
Quantity: remaining binding
RPS6KB1 (Homo sapiens, UniProt P23443); kinase binding, KINOMEscan; relative to: DMSO control: 80%
CDC42BPB (Homo sapiens, UniProt Q9Y5S2); kinase binding, KINOMEscan; relative to: DMSO control: 100%
MAP3K9 (Homo sapiens, UniProt P80192); binding, competition with immobilised ligand: 100%
MAP2K6 (Homo sapiens, UniProt P52564); binding, competition with immobilised ligand: 92%
DCLK1 (Homo sapiens, UniProt O15075); binding, competition with immobilised ligand: 88%
PRKCH (Homo sapiens, UniProt P24723); binding, competition with immobilised ligand: 100%
GRK3 (Homo sapiens, UniProt P35626); binding, competition with immobilised ligand: 51%
MAPK9 (Homo sapiens, UniProt P45984); binding, competition with immobilised ligand: 100%
KIT (Homo sapiens, UniProt P10721, V559D/V654A); kinase binding, KINOMEscan; relative to: DMSO control: 93%
SGK1 (Homo sapiens, UniProt O00141); kinase binding, KINOMEscan; relative to: DMSO control: 95%
RIOK1 (Homo sapiens, UniProt Q9BRS2); binding, competition with immobilised ligand: 100%
MAP3K12 (Homo sapiens, UniProt Q12852); kinase binding, KINOMEscan; relative to: DMSO control: 100%
NEK5 (Homo sapiens, UniProt Q6P3R8); kinase binding, KINOMEscan; relative to: DMSO control: 94%

Series 4
SMILES: CCN1/C(=C/C=C2\CCCC(/C=C/C3=[N+](CC)c4ccccc4C3(C)C)=C2NCCCCCCCCN2CCC(Nc3nc4ccccc4n3Cc3ccc(F)cc3)CC2)C(C)(C)c2ccccc21
Cell line: U-87 MG
Concentration: concentration not given
Relative to: DMSO
Quantity: log2 fold change
refers to: PARPBP mRNA: -1.28
refers to: SLX4 mRNA: -1.28
refers to: DENND5B mRNA: 1
refers to: ITPRIP mRNA: 0.871
refers to: ZFAND6 mRNA: 0.842
refers to: MCM3 mRNA: -1.59
refers to: PHF1 mRNA: 1.11
refers to: ENPP1 mRNA: -2.14
refers to: ZFP36L2 mRNA: -0.807
refers to: LRIF1 mRNA: 1.01
refers to: LGALS8 mRNA: 1.3
refers to: DDIT3 mRNA: 2.46

Series 5
SMILES: C[C@@H]1CN(c2ccc(-c3cc(C(=O)NCCOCCOCCOCCOCCOCCOCCNC(=O)/C=C/c4[nH]cc(C(=O)N[C@@H](CC(N)=O)c5ccc(F)c(Cl)c5)c4-c4ccc(Cl)cc4F)ccc3F)cc2NC(=O)c2ccc(F)cc2C(F)(F)F)C[C@H](C)N1C
Observed: thermal unfolding
Technique: differential scanning fluorimetry
Concentration: 5.5 µM
Direction: higher = more unfolded
Quantity: SYPRO Orange fluorescence
DCAF1: DDB1- and CUL4-associated factor 1 (DCAF1, Homo sapiens, UniProt Q9Y4B6)
Sequence of UniProt Q9Y4B6 (whole entry, looked up): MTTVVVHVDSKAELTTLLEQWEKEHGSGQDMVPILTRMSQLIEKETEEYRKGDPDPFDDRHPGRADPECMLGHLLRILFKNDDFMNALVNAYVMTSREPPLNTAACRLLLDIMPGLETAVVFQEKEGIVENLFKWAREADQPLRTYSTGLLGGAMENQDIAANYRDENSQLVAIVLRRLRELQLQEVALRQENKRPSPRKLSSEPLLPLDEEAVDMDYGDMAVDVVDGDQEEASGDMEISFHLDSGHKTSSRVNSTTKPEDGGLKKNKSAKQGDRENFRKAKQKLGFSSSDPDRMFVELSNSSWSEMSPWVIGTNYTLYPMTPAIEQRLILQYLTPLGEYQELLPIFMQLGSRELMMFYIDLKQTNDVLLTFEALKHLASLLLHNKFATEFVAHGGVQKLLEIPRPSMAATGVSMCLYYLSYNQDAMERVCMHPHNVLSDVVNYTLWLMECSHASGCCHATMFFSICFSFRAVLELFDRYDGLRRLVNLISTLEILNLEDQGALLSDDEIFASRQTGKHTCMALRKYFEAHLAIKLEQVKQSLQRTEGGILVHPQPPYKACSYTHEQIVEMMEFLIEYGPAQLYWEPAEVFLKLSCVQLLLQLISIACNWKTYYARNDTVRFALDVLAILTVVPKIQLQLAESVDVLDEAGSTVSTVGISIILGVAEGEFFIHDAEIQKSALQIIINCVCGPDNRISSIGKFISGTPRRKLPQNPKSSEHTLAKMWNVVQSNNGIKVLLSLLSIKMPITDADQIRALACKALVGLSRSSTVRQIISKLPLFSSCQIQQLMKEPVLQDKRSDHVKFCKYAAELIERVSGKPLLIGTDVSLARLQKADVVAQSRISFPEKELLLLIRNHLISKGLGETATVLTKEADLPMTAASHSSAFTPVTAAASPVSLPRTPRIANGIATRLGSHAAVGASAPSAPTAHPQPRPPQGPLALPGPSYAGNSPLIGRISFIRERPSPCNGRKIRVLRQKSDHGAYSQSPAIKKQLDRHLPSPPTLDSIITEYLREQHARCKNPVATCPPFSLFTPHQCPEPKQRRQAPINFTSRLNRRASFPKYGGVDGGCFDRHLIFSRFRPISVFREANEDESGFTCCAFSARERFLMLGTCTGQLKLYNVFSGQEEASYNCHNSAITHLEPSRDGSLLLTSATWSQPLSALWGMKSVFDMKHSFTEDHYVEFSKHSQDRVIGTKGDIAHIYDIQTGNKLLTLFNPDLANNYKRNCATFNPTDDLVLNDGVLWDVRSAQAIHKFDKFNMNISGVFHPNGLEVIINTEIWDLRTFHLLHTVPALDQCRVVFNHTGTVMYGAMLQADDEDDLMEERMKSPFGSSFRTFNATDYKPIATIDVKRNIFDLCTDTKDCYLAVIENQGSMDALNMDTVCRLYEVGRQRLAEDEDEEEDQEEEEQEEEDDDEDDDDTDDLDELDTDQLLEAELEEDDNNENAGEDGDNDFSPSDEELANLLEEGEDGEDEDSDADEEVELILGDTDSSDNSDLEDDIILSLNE
WDR5: WD repeat-containing protein 5 (WDR5, Homo sapiens, UniProt P61964)
DCAF1; 78.01 °C: 41300 a.u.
WDR5; 57.61 °C: 15800 a.u.
DCAF1; 77.41 °C: 41700 a.u.
WDR5; 47.4 °C: 15300 a.u.
DCAF1; 80.01 °C: 39900 a.u.
DCAF1; 81.41 °C: 39000 a.u.
DCAF1; 54.61 °C: 25900 a.u.
WDR5; 43.4 °C: 14600 a.u.
DCAF1; 94.01 °C: 29400 a.u.
WDR5; 82.61 °C: 65300 a.u.
WDR5; 85.01 °C: 62100 a.u.

Series 6
Structure (SMILES): COc1cc(-c2nc3ccc(C(=O)NCCCN(C)C)cc3n2C2CCC2)cc(OC)c1OC
Concentration: 1 µM
Quantity: remaining binding
BMP2K (Homo sapiens, UniProt Q9NSY1); binding, competition with immobilised ligand: 67%
SYK (Homo sapiens, UniProt P43405); binding, competition with immobilised ligand: 100%
TRPM6 (Homo sapiens, UniProt Q9BX84); binding, competition with immobilised ligand: 100%
FGR (Homo sapiens, UniProt P09769); binding, competition with immobilised ligand: 100%
PRKCH (Homo sapiens, UniProt P24723); binding, competition with immobilised ligand: 79%
CSNK1G3 (Homo sapiens, UniProt Q9Y6M4); binding, competition with immobilised ligand: 100%
CAMK1G (Homo sapiens, UniProt Q96NX5); binding, competition with immobilised ligand: 98%
CAMK2G (Homo sapiens, UniProt Q13555); binding, competition with immobilised ligand: 99%
PIK3CA (Homo sapiens, UniProt P42336, E545A); binding, competition with immobilised ligand: 83%
MAPK13 (Homo sapiens, UniProt O15264); binding, competition with immobilised ligand: 100%
YES1 (Homo sapiens, UniProt P07947); binding, competition with immobilised ligand: 88%
BMX (Homo sapiens, UniProt P51813); binding, competition with immobilised ligand: 93%
CDC42BPA (Homo sapiens, UniProt Q5VT25); binding, competition with immobilised ligand: 94%
LRRK2 (Homo sapiens, UniProt Q5S007); binding, competition with immobilised ligand: 92%
AKT1 (Homo sapiens, UniProt P31749); binding, competition with immobilised ligand: 100%
CDC42BPG (Homo sapiens, UniProt Q6DT37); KINOMEscan; relative to: control: 89%
ITK (Homo sapiens, UniProt Q08881); binding, competition with immobilised ligand: 83%
MAP2K2 (Homo sapiens, UniProt P36507); binding, competition with immobilised ligand: 98%
CSK (Homo sapiens, UniProt P41240); binding, competition with immobilised ligand: 100%
ROCK1 (Homo sapiens, UniProt Q13464); binding, competition with immobilised ligand: 88%
NEK9 (Homo sapiens, UniProt Q8TD19); binding, competition with immobilised ligand: 48%
MARK3 (Homo sapiens, UniProt P27448); binding, competition with immobilised ligand: 96%
DYRK2 (Homo sapiens, UniProt Q92630); binding, competition with immobilised ligand: 81%
FLT3 (Homo sapiens, UniProt P36888, D835H); binding, competition with immobilised ligand: 93%
PI4KB (Homo sapiens, UniProt Q9UBF8); binding, competition with immobilised ligand: 79%

Single results of other studies
Cc1ccc(O)c(C)c1-c1cnc2[nH]c(-c3cnc(N4CCC(CN5CCN(c6ccc7c(c6F)CN(C6CCC(=O)NC6=O)C7=O)CC5)CC4)nc3)cc2c1C#N (stereo not drawn)
Cmax (female CD-1 mouse, plasma; oral, 20 mg/kg): 1000 ng/mL

CN1CCC[C@H]1COc1nc2c(c(N3CCN(C(=O)C4CC4)[C@@H](CC#N)C3)n1)CCN(c1cccc3cccc(Cl)c13)C2
IC50 (GTPase KRas (KRAS, Homo sapiens, UniProt P01116, G13D); target engagement in cells, BRET): 3300 nM

Cc1ncc(-c2cc3c(C#N)c(-c4c(C)ccc(O)c4C)cnc3[nH]2)cn1
oral bioavailability (Sprague-Dawley rat, male, plasma; oral, dose not given): 6%

O=C(CCCCn1ccnc1Cn1ccc2ccc(CNCc3[nH]c4ccccc4c3C3NC(=O)c4ccc(O)cc43)cc21)NCCOCCOCCOCCNC(=O)CCc1ccc2n1[B-](F)(F)[N+]1=C(c3ccc[nH]3)C=CC1=C2 (stereo not drawn)
EC50 (GTPase HRas (HRAS, Homo sapiens, UniProt P01112, G12C)): 660 nM

Cc1ccc(O)c(C)c1-c1cnc2[nH]c(-c3cnc(N4CCC(CN5CCN(c6ccc(NC7CCC(=O)NC7=O)cc6F)CC5)CC4)nc3)cc2c1C#N (stereo not drawn)
half-life (female CD-1 mouse, plasma; oral, 10 mg/kg): 198 min

Cc1nc(C)c(C=[N+]([O-])C(C)(C)C)nc1C
corridor crossing time (footprint test; MPTP-induced Parkinson's disease mouse model; 90 mg/kg, trial 1): 5.31 s and 6.72 s and 4.44 s and 5.5 s and 5.81 s and 5.55 s and 4.98 s and 7.11 s

Cc1ccc(O)c(C)c1-c1cnc2[nH]c(-c3cnc(N4CCC5(CC4)CC(N4CCN(c6ccc(NC7CCC(=O)NC7=O)cc6F)CC4)CO5)nc3)cc2c1C#N (stereo not drawn)
half-life (CD-1 mouse, female, plasma; oral, 20 mg/kg): 270 min

For quick reference, copied from above (series 4):
refers to: MCM3 mRNA: -1.59
refers to: PHF1 mRNA: 1.11
refers to: ENPP1 mRNA: -2.14
refers to: ZFP36L2 mRNA: -0.807
refers to: LRIF1 mRNA: 1.01
refers to: LGALS8 mRNA: 1.3
refers to: DDIT3 mRNA: 2.46
